Earlier results that unrelated publications cite.
Lines come from different studies, so protocols differ. ± gives the spread as reported.
UniProt P41145, sequence (whole entry, looked up): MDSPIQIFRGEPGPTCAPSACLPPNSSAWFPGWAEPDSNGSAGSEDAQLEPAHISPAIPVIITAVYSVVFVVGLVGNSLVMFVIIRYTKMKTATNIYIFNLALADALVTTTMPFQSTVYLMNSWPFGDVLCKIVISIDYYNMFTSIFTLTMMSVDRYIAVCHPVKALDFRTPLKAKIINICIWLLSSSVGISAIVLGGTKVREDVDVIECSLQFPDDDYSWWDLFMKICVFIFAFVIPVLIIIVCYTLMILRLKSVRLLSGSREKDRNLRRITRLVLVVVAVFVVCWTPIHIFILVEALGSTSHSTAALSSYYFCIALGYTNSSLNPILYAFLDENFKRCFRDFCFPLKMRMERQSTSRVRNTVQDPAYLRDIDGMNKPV
UniProt Q01959, sequence (whole entry, looked up): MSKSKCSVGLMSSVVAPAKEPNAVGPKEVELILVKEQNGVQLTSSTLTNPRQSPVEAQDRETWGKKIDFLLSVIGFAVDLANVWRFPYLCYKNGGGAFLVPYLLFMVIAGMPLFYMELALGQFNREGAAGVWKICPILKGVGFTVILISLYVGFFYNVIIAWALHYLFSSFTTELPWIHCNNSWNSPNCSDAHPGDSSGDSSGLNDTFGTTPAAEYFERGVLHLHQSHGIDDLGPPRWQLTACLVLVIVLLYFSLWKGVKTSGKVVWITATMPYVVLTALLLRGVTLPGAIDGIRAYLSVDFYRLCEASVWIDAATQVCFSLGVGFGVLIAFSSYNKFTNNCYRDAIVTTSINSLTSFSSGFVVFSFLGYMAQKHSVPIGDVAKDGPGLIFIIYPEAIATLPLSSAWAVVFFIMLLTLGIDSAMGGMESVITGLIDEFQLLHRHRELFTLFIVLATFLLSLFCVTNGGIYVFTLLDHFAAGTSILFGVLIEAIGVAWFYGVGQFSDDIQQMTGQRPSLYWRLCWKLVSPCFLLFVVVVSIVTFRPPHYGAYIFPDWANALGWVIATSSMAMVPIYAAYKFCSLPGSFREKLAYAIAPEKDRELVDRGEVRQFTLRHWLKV
UniProt P07148, sequence (whole entry, looked up): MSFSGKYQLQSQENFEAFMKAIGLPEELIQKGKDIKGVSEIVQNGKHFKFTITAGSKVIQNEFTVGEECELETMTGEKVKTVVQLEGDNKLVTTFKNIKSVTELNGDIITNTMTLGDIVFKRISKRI

CCCCCc1cc(O)c2c(c1)OC(C)(C)[C@@H]1CCC(CO)=C[C@@H]21 — Kd (FABP1 (Homo sapiens, UniProt P07148); binding; previously reported): 7.1 µM
COC(=O)C1C(c2ccc(C)cc2)CC2CCC1N2CC=CC[18F] (stereo not shown) — Ki (SLC6A3 (Homo sapiens, UniProt Q01959)): 26 nM
CCCCCn1cc(C(=O)c2cccc3c2CC(C)(C)C3)c2ccccc21 — Ki (cannabinoid receptor CB1; binding): 1.46 ± 0.49 nM
Cc1cc(-c2ccccc2)nc2nc(C(=O)Nc3sc4c(c3C(N)=O)CCCCC4)nn12 — IC50 (Polymerase acidic protein, with PB1, PB2 (Influenza A virus, UniProt P03433); RdRP activity, minireplicon): 16 µM
C[C@@H]1N=C[C@H](O)[C@H]1O — Ki (Penicillium decumbens α-L-rhamnosidase): 140 nM
C[C@]12CC[C@@H](O)C[C@@H]1CC[C@@H]1[C@@H]2C(=O)C[C@]2(C)C(C#N)=CC[C@@H]12 — IC50 (GABAA receptor picrotoxin site): 0.361 ± 0.058 µM
O=C(N[C@H]1CC[C@@]2(O)[C@H]3Cc4ccc(O)c5c4[C@@]2(CCN3CC2CC2)[C@H]1O5)c1cccc2ccoc12 — Ki (OPRK1 (Homo sapiens, UniProt P41145); binding; with: [3H]diprenorphine): 5.12 ± 0.96 nM
CCOC(=O)C1C(OC(c2ccc(Cl)cc2)c2ccc(Cl)cc2)CC2CCC1N2C (single isomer, unassigned) — Ki (dopamine transporter): 14.6 ± 0.39 nM
OC[C@H]1NC[C@@H](O)[C@@H]1O — Ki (yeast α-glucosidase): 180 nM
CCCCCc1cc(O)c2c(c1)OC(C)(C)[C@@H]1CCC(C)=C[C@@H]21 — IC50 (α-glucosidase yeast; enzyme activity, inhibitor): 3 µg/mL

A few entries again:
OC[C@H]1NC[C@@H](O)[C@@H]1O — Ki (yeast α-glucosidase): 180 nM
